Results gathered from unrelated publications.
Numbered parts are unrelated; each lists some results of a single study.

Study 1
Target: Histone acetyltransferase KAT6A, both winged helices, GST fusion (KAT6A, Homo sapiens, UniProt Q92794, residues 1-181)
Technique: protein binding microarray
Molecule type: double-stranded DNA, one strand shown
Medium: in vitro
Concentration: not given
Notes: 8-mer, flanks averaged, mean of 2 arrays, mostly near background
Baseline: not given
Direction: higher = stronger binding
Residues (chain): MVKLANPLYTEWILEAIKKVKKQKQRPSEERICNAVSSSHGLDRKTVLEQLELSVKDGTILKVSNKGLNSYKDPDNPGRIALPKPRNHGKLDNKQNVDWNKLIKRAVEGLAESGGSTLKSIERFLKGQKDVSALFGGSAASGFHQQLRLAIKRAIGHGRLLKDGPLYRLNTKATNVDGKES
`AAGAGCCG` gave an E-score of 0.163.
`TAAGCGTA` has an E-score of 0.143.
With `GCCACCAA` the E-score was -0.0386.
For `CTAAAGCA`, the E-score was -0.0919.
`CCTCGGAG` gave an E-score of 0.0112.
The E-score of `CCCTTGTC` is reported as -0.165.

Study 2
Target: TAR DNA-binding protein 43, full length, His tag (TARDBP, Homo sapiens, UniProt Q13148, residues 1-414)
Technique: RNA Bind-n-Seq
Molecule type: RNA
Medium: in vitro
Concentration: 20 nM
Notes: 6-mer, flanks averaged, single round
Added: 150 mM LiCl
Baseline: input library
Direction: higher = stronger binding
`GAAACU`: “6-mer enrichment (R)” 0.83.
Under “6-mer enrichment (R)”, `GUCGCU` is recorded as 0.952.
`ACCACA`: “6-mer enrichment (R)” 0.895.
`CGACUA` — result for “6-mer enrichment (R)”: 0.792.
For `UUCUCG`, “6-mer enrichment (R)” read 0.876.
`AUUGAC` — result for “6-mer enrichment (R)”: 0.874.
`GAGCCU`: “6-mer enrichment (R)” 0.927.

Study 3
Target: Prothrombin, mature alpha-thrombin (F2, Homo sapiens, UniProt P00734)
Technique: aptamer microarray, sandwich
Molecule type: DNA with 2'F-ANA
Medium: in vitro
Concentration: 200 nM
Notes: whole 15-mer aptamer, many near background
Added: Cy3 exosite-II aptamer, 400 nM
Direction: higher = stronger binding
Oligonucleotide: GGTTGGTGTGGTTGG
For `2'F-ANA at 1 3 5 7 9 11 13`, “mean fluorescence intensity” read 56.1 a.u.
`2'F-ANA at 2 7 10 11 15` — result for “mean fluorescence intensity”: 123 a.u.
For `2'F-ANA at 2 3 5 6 8 9 15`, “mean fluorescence intensity” read 96.6 a.u.
`2'F-ANA at 1 6 8 9 10 12 14 15` — result for “mean fluorescence intensity”: 54.7 a.u.
For `2'F-ANA at 3 5 7 9 13 15`, “mean fluorescence intensity” read 81.4 a.u.
`2'F-ANA at 2 4 5 8 9 10 11 14`: “mean fluorescence intensity” 45.9 a.u.
`2'F-ANA at 1 2 3 5 6 8 11 12 13 14 15`: “mean fluorescence intensity” 53.3 a.u.

Other studies, line by line
`PhoQ, residues 284 288 289 292 302 303 SSTMSV` gave a fold induction of 15 (PhoP, residues 12 14 15 18 19 SQCLL (Escherichia coli, UniProt P23836); Sort-seq, item: YFP reporter; E. coli; PhoQ-PhoP variant library, added: 10 µM Mg2+; baseline: high Mg2+ state, higher = stronger signaling).

Excerpt of the above (study 3):
For `2'F-ANA at 1 3 5 7 9 11 13`, “mean fluorescence intensity” read 56.1 a.u.
For `2'F-ANA at 2 3 5 6 8 9 15`, “mean fluorescence intensity” read 96.6 a.u.
